Assay results of several laboratories.
Protocols differ between the studies behind these lines. Values joined by “and” are separate records of one study, mostly repeats; a detail may differ. ± marks the error that the study gave. Converted amounts (≈) assume the structure as drawn.
GBA1 R534H: Lysosomal acid glucosylceramidase (GBA1, Homo sapiens, UniProt P04062, R534H)
Sequence of UniProt P04062 (whole entry, unmodified, looked up): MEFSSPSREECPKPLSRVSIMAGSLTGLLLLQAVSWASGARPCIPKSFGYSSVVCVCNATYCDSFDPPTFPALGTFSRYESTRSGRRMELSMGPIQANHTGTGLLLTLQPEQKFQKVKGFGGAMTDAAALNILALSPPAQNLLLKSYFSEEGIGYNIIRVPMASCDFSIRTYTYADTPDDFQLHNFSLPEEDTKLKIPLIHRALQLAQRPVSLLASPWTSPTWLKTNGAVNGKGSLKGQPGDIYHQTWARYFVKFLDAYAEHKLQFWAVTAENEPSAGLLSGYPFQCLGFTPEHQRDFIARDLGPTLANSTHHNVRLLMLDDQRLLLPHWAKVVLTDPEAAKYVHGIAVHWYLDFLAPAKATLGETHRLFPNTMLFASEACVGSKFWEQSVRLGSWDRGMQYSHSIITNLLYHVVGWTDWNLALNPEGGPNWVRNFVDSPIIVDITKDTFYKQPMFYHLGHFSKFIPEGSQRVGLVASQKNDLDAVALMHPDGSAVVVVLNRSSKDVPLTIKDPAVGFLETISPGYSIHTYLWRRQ

Compound | tested on | assay | test system | setting | scale | measurement | value
C[C@]12C[C@H](c3ccc(S(C)(=O)=O)cc3)C3=C4CCC(=O)C=C4CC[C@H]3[C@@H]1CC[C@@]2(O)C(F)(F)C(F)(F)F |  | item: compound (parent) | healthy human volunteers, pooled plasma | oral, 5 mg daily, day 28, 48 h |  | plasma concentration | 7.52 ng/mL
Cc1c(Cc2ccc(OC(C)C(=O)O)cc2)c2ccc(C(=O)NC(C)c3ccc(C(C)(C)C)cc3)cc2n1C (mixture of isomers) |  |  | human liver microsomes | 1 µM, together with: microsomes 1 mg/mL |  | half-life | > 1 h
O=C(O)CN1CCN(CC(=O)O)CCN(CC(O)CN(CC(O)CN2CCN(CC(=O)O)CCN(CC(=O)O)CCN(CC(=O)O)CC2)C[C@H](O)[C@@H](O)[C@H](O)[C@H](O)CO)CCN(CC(=O)O)CC1 (stereo partly shown) |  | pH-potentiometry, item: Gd2(HL), glucamine N protonation |  | 25 °C, 0.15 M NaCl |  | log K | 2.99
CN(O)C(=O)CCC(=O)NCCCN(CCCCN(CCCNC(=O)CCC(=O)N(C)O)C(=O)CCC(=O)N(C)O)C(=O)CCC(=O)N(C)O.[89Zr] |  | radio-TLC | aqueous buffer | 5 d, pH 5, 37 °C, 89Zr-labelled complex, together with: DTPA 1000-fold excess |  | intact complex | 83.2 ± 1.7%
CC(C)(O)c1ncc([S@](N)(=O)=NC(=O)Nc2c3c(cc4c2CCC4)CCC3)s1 |  | item: musculoskeletal, connective tissue | healthy human | oral, dose not given, 14 days, all active multiple doses pooled |  | subjects with TEAEs | 13%
CN(Cc1cc(C2CC2)on1)C(=O)c1cccc(-c2ccc(F)cc2)c1 |  | metabolic stability | male CD-1 mouse, liver microsomes | 2 µM, 0 h, pH 7.5 |  | compound remaining | 100%
OC[C@@H]1[C@@H](O)[C@H](O)[C@@H](O)CN1CCCCCOCc1ccc2ccccc2c1 | GBA1 R534H | inhibitor, 4MU-β-D-glucopyranoside |  | together with: 4MU-β-D-glucopyranoside |  | IC50 | 1000 nM
O=C(c1ccccc1)N1C(c2ccc(OCC3CCN(CCCF)C3)cc2)c2ccc(O)cc2CC12CC2 (stereo not shown) |  |  | C57BL/6J mouse, plasma | intraperitoneal, 25 mg/kg |  | AUC(0-t) | 8.2 µg·h/mL
Cc1ncsc1-c1ccc(CNC(=O)[C@@H]2C[C@@H](O)CN2C(=O)[C@@H](NC(=O)COCC(C)(COCCOCCOCCNC(=O)C[C@@H]2N=C(c3ccc(Cl)cc3)c3c(sc(C)c3C)-n3c(C)nnc32)COCCOCCOCCNC(=O)C[C@@H]2N=C(c3ccc(Cl)cc3)c3c(sc(C)c3C)-n3c(C)nnc32)C(C)(C)C)cc1 |  |  | male C57BL/6 mice, plasma | subcutaneous, 5 mg/kg, 0.083 h |  | plasma concentration | 478 ng/mL and 245 ng/mL and 235 ng/mL
CC[C@H](C)[C@H](NC(=O)[C@H](CCCCN)NC(C)=O)C(=O)N[C@@H](C)C(=O)N[C@@H](C)C(=O)N[C@@H](CC(C)C)C(=O)N[C@@H](CCCCN)C(=O)N[C@@H](CCC(=O)O)C(=O)N[C@@H](CCCCN)C(=O)N[C@H](C(=O)N[C@@H](C)C(=O)N[C@@H](C)C(=O)N[C@@H](CC(C)C)C(=O)N[C@@H](CCCCN)C(=O)N[C@@H](CCC(=O)O)C(=O)N[C@@H](CCCCN)C(=O)N[C@H](C(=O)N[C@H]1CSCc2ccccc2CSC[C@@H](C(=O)NCC(=O)N[C@@H](Cc2c[nH]c3ccccc23)C(N)=O)NC(=O)[C@H](CCCCN)NC(=O)[C@H](CC(C)C)NC(=O)[C@H](C)NC1=O)[C@@H](C)CC)[C@@H](C)CC |  | tryptophan fluorescence titration | DOPC/DOPE/cholesterol 2:1:1 liposomes in PBS |  |  | ΔG of membrane partitioning | -6.75 kcal/mol
O=c1c2ccccc2[se]n1CCCCCCn1[se]c2ccccc2c1=O |  | shake-flask, RP-HPLC | 1-octanol | 24 h, 25 °C |  | solubility | 1060 ± 80 µg/mL (≈ 2220 µM)
O=C(Nc1cnccc1-c1ccc([18F])nc1)c1ccnc(NC(=O)C2CC2)c1 |  | ex vivo gamma counting | GSK-3β transgenic mice, early-stage, adipose tissue | intravenous, 120 min |  | mean SUV | 0.076
Cc1cc(Cl)c(OCCOCCN2CCN(C)CC2)c(Br)c1.O=C(O)C(=O)O | Trypanosoma cruzi | reporter mRNA translation, inhibitor, item: capped polyadenylated Renilla luciferase mRNA | cell-free extract | concentration not given | reference: control RNA | relative translation | 115%
OC[C@@H]1[C@@H](O)[C@H](O)[C@@H](O)CN1CCCCCOCc1ccc(-c2ccccc2F)cc1 | GBA1 R534H | inhibitor, 4MU-β-D-glucopyranoside |  | together with: 4MU-β-D-glucopyranoside |  | IC50 | 600 nM
Fc1cccc(-n2cc(-c3ccccc3)nc2NCc2ccc(C(F)(F)F)c(Br)c2)c1 |  |  | CD-1 mice, male, intestine | intraperitoneal, 25 mg/kg, single dose |  | AUC(0-last) | 662 µg·h/mL
CC(C)[C@H](NC(=O)[C@H](Cc1c[nH]c2ccccc12)NC(=O)[C@H](CCCNC(=N)N)NC(=O)[C@H](CCCNC(=N)N)NC(=O)[C@@H](NC(=O)[C@@H](NC(=O)[C@H](CCCNC(=N)N)NC(=O)[C@@H](NC(=O)[C@@H](NC(=O)[C@H](CCCNC(=N)N)NC(=O)[C@H](CCCNC(=N)N)NC(=O)[C@@H](NC(=O)[C@H](Cc1c[nH]c2ccccc12)NC(=O)[C@H](CCCNC(=N)N)NC(=O)[C@H](CCCNC(=N)N)NC(=O)[C@@H](NC(=O)[C@H](CCCNC(=N)N)NC(=O)[C@H](CCCNC(=N)N)NC(=O)[C@@H](NC(=O)[C@H](Cc1c[nH]c2ccccc12)NC(=O)[C@H](CCCNC(=N)N)NC(=O)[C@@H](N)CCCNC(=N)N)C(C)C)C(C)C)C(C)C)C(C)C)C(C)C)C(C)C)C(C)C)C(=O)N[C@@H](CCCNC(=N)N)C(=O)N[C@@H](CCCNC(=N)N)C(=O)O |  |  | CD1 mouse, urine | intravenous, 15 mg/kg, 6 h, [14C]-labelled compound |  | creatinine | 8.7 mg/dL
CCOC(=O)c1c(NC(=O)Cn2cnc([N+](=O)[O-])n2)sc2c1CCC(C)C2 (stereo not shown) | Trypanosoma cruzi | reporter mRNA translation, inhibitor, item: capped polyadenylated Renilla luciferase mRNA | cell-free extract | concentration not given | reference: control RNA | relative translation | 97.9%
COCC1CN(C2CCN(c3cc(OC)c(Nc4ncc(Br)c(Nc5ccc6c(c5P(C)(C)=O)OCCO6)n4)cc3C)CC2)C1 |  |  | EGFR-mutant NSCLC patients, plasma | oral, 60 mg multiple doses, geometric mean |  | Cmax at steady state | 1020 ng/mL
Cc1cccc(-c2cccc(C)n2)n1.Cc1cccc(-c2cccc(C)n2)n1.F[P-](F)(F)(F)(F)F.F[P-](F)(F)(F)(F)F.[Ru+2].c1ccc2c(c1)Cc1cc(-c3nc4c5cccnc5c5ncccc5c4[nH]3)ccc1-2 |  |  | aerated acetonitrile | 298 K | reference: Ru(bpy)3(PF6)2 | singlet oxygen quantum yield | 0

Excerpt of the above:
Compound | tested on | assay | test system | setting | scale | measurement | value
O=C(O)CN1CCN(CC(=O)O)CCN(CC(O)CN(CC(O)CN2CCN(CC(=O)O)CCN(CC(=O)O)CCN(CC(=O)O)CC2)C[C@H](O)[C@@H](O)[C@H](O)[C@H](O)CO)CCN(CC(=O)O)CC1 (stereo partly shown) |  | pH-potentiometry, item: Gd2(HL), glucamine N protonation |  | 25 °C, 0.15 M NaCl |  | log K | 2.99
OC[C@@H]1[C@@H](O)[C@H](O)[C@@H](O)CN1CCCCCOCc1ccc(-c2ccccc2F)cc1 | GBA1 R534H | inhibitor, 4MU-β-D-glucopyranoside |  | together with: 4MU-β-D-glucopyranoside |  | IC50 | 600 nM
OC[C@@H]1[C@@H](O)[C@H](O)[C@@H](O)CN1CCCCCOCc1ccc2ccccc2c1 | GBA1 R534H | inhibitor, 4MU-β-D-glucopyranoside |  | together with: 4MU-β-D-glucopyranoside |  | IC50 | 1000 nM
